Published values collected from several papers.
Every numbered part comes from another study and shows a few of its results, in no order.
Chain of UniProt Q16832 (whole entry, looked up): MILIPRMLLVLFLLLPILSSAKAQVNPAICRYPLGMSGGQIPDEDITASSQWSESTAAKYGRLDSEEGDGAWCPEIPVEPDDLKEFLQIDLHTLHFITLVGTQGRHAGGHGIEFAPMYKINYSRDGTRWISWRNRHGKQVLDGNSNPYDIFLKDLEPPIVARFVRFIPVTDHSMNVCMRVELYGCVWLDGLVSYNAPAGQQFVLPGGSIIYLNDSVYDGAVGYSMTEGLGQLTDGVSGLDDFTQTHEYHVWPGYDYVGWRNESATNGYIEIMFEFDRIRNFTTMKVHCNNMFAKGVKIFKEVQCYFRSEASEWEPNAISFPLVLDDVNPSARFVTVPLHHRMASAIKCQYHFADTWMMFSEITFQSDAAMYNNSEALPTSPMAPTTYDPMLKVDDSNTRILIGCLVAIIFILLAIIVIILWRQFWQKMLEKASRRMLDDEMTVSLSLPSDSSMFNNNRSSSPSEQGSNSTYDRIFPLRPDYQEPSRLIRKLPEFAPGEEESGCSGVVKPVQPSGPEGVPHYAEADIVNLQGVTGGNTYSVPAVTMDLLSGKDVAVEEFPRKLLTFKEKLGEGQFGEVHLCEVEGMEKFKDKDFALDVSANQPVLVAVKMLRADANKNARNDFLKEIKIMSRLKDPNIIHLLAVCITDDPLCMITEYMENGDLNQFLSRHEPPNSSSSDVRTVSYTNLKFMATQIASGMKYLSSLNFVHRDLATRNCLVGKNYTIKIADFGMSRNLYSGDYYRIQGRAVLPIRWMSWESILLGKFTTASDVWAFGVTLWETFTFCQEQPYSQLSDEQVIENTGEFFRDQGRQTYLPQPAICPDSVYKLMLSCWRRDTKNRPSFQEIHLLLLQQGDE
Chain of UniProt P23443 (whole entry, looked up): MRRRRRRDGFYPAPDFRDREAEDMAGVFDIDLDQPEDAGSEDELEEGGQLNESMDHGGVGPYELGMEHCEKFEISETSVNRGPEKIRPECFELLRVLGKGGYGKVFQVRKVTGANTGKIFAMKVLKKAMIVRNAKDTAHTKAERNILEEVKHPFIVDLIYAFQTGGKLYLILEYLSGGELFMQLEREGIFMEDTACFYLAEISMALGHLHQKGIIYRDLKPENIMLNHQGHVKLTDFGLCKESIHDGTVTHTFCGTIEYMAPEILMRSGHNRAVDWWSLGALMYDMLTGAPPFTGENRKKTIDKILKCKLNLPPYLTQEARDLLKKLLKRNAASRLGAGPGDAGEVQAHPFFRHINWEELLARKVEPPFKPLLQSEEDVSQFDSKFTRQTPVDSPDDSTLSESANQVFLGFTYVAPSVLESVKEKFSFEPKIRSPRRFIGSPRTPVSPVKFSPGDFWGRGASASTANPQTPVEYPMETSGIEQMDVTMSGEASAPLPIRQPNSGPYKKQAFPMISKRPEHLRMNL
Chain of UniProt P51812 (whole entry, looked up): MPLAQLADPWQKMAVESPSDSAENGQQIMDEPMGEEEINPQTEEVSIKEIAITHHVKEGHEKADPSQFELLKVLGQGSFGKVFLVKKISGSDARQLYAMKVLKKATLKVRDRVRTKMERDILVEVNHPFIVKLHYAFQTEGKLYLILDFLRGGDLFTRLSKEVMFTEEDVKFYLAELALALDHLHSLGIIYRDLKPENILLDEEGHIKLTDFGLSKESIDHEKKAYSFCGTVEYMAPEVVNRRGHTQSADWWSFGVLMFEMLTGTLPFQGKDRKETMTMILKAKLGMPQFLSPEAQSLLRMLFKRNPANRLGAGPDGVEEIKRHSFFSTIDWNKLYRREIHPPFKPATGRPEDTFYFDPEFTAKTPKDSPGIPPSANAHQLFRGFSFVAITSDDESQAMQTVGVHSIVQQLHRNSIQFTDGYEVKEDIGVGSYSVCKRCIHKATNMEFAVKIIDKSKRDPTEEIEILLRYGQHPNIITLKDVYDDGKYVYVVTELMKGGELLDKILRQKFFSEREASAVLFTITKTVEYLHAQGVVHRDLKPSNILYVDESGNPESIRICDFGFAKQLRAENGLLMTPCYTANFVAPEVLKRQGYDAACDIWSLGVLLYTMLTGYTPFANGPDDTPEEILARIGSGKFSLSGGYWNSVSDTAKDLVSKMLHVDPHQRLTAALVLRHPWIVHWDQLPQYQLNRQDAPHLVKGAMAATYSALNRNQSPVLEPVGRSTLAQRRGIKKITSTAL
Chain of UniProt P11362 (whole entry, looked up): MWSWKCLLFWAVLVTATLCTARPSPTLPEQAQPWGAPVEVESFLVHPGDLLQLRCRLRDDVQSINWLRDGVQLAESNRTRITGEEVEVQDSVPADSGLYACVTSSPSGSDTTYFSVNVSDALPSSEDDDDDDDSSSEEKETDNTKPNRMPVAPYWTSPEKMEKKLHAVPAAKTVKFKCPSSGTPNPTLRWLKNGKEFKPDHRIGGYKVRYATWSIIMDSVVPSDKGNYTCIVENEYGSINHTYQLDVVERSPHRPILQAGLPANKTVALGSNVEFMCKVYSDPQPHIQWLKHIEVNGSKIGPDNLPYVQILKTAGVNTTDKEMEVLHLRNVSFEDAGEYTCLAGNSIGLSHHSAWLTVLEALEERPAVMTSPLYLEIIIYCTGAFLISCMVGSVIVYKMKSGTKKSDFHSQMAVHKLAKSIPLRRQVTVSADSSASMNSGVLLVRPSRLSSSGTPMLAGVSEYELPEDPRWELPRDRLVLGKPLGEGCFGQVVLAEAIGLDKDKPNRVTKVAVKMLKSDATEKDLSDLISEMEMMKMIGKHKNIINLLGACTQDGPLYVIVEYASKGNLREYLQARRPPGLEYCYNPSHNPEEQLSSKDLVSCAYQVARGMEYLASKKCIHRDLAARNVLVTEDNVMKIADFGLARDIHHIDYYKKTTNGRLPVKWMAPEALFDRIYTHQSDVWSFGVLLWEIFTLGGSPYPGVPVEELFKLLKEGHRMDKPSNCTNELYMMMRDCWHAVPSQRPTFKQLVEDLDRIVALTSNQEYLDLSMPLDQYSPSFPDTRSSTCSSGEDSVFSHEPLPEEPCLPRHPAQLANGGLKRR

Series 1
Structure (SMILES): O=C(NCc1ncc(C(F)(F)F)cc1Cl)c1ccc2c(c1)C1(CCS(=O)(=O)CC1)[C@@H](C1CC1)N2S(=O)(=O)c1ccc(F)cc1
Observed: cell-free assay
Technique: competition with immobilised ligand
Tested at: 1 µM
Endpoint: remaining binding
Tyrosine-protein kinase ABL1, phosphorylated (ABL1, Homo sapiens, UniProt P00519, H396P): 83%
Ribosomal protein S6 kinase alpha-3, N-terminal kinase domain (RPS6KA3, Homo sapiens, UniProt P51812): 57%
EGFR (Homo sapiens, UniProt P00533, T790M): 100%
RPS6KB1 (Homo sapiens, UniProt P23443): 72%
EGFR (Homo sapiens, UniProt P00533, del746-750): 69%
DDR2 (Homo sapiens, UniProt Q16832): 67%
FGFR1 (Homo sapiens, UniProt P11362): 100%

Series 2
Target: TGF-beta receptor type-1 (TGFBR1, Homo sapiens, UniProt P36897)
Chain of UniProt P36897 (whole entry, looked up): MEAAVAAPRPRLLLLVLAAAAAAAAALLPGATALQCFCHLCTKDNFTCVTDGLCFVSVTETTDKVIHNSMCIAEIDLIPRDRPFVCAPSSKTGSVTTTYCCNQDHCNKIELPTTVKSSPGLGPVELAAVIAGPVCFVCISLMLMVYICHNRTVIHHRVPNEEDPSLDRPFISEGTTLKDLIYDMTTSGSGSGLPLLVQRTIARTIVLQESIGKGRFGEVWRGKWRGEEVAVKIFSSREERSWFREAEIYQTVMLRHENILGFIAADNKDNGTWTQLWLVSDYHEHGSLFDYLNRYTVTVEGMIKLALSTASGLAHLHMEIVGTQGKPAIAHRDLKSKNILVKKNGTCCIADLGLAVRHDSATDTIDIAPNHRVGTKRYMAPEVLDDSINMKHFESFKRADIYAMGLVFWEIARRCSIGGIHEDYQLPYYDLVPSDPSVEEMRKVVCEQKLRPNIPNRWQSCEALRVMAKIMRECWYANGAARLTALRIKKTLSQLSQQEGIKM
Observed: enzyme activity
Mode: inhibitor
Tested at: 0.5 µM
Reference: control
Endpoint: remaining activity
O=c1c2ccccc2[nH]c(=S)n1CCN1CCC(=C(c2ccc(F)cc2)c2ccc(F)cc2)CC1: 96.2%
Cc1nc(-c2ccccc2)c(-c2ccncc2)o1: 102%
COc1ccc(OC)c2c(=S)c3ccccc3[nH]c12: 99.1%
O=C(O)c1ccc2c3c1cccc3c(=O)n1c3ccccc3nc21: 99.4%
O=C(Nc1cccc(Nc2cc(Nc3cccc(C(F)(F)F)c3)ncn2)c1)C1CC1: 97.4%
CC(C)[C@H](CO)Nc1nc(Nc2cc(N)cc(Cl)c2)c2ncn(C(C)C)c2n1: 103%
CN(C)c1ccc(C=C2C(=O)Nc3ccccc32)cc1: 96.7%
Oc1ccc(-c2nc(-c3ccncc3)c(-c3ccc(F)cc3)[nH]2)cc1: 108%
COc1cc2nccc(Oc3ccc(NC(=S)NC(=O)c4ccccc4C)cc3)c2cc1OC: 98%
O=C(CCCc1ccc(-c2ccccc2F)cc1)Nc1ccc(O)cc1: 102%
O=S(=O)(c1cccc2cnccc12)N1CCCNCC1: 98.4%
CNC(=O)c1cc(Oc2ccc(NC(=O)Nc3ccc(Cl)c(C(F)(F)F)c3)cc2)ccn1: 94.1%
COc1ccc(CNC(=O)Nc2ncc([N+](=O)[O-])s2)cc1: 95.8%
Nc1[nH]nc2nc3ccccc3nc12: 98.1%

Series 3
Cell line: Huh-7
Tested at: 10 µM
Time: 24 h
Endpoint: viability
O=c1[nH]cc(F)c(=O)[nH]1: 64.7%
[H]/N=C(\N/C(=N/[H])NCCCCCCNC(=N)NC(=N)Nc1ccc(Cl)cc1)Nc1ccc(Cl)cc1: 72.4%
Cc1cn[nH]c1: 102%
CC(=O)N(c1onc(C)c1C)S(=O)(=O)c1ccc(N)cc1: 97%
Cc1nc2ccccn2c(=O)c1CCN1CCC(C(=O)c2ccc(F)cc2)CC1: 96.3%
CC1(C)O[C@@H]2C[C@H]3[C@@H]4CCC5=CC(=O)C=C[C@]5(C)[C@@]4(F)[C@@H](O)C[C@]3(C)[C@]2(C(=O)CO)O1: 96.6%
OC(CCN1CCCC1)(c1ccccc1)C1CCCCC1 (stereo not shown): 95.5%
CCN1CCN(C(=O)N[C@@H](C(=O)N[C@@H]2C(=O)N3C(C(=O)O)=C(CSc4nnnn4C)CS[C@H]23)c2ccc(O)cc2)C(=O)C1=O: 100%
CCN1CCCC(OC(=O)C(c2ccccc2)c2ccccc2)C1 (stereo not shown): 100%
Cc1cc(C)nc(NS(=O)(=O)c2ccc(N)cc2)n1: 103%

Series 4
Compound: COc1ccc(-c2c(Nc3ccccn3)[nH]c3c(C4=CCCCC4)c(-c4ccccc4)nn3c2=O)cc1
Technique: LC-MS/MS
Medium: plasma
Endpoint: plasma concentration
item: methionine; human cancer patients; 200 mg BID, 4 h, mean, cycle 1 day 200: 76000 ng/mL
item: S-adenosylmethionine; human cancer patients; 200 mg BID, 2 h, mean, cycle 1 day 200: 10.5 ng/mL
item: S-adenosylmethionine; human cancer patients; 50 mg QD, 8 h, median, cycle 1 day 50: 18.2 ng/mL
human; oral, 50 mg once daily, 1 h, geometric mean: 1150 ng/mL
item: S-adenosylmethionine; human cancer patients; 200 mg BID, 0 h, mean, cycle 1 day 200: 10.9 ng/mL
human; oral, 200 mg twice daily, 6 h, mean: 9760 ng/mL
human; oral, 50 mg once daily, 1 h, mean: 1160 ng/mL
item: S-adenosylmethionine; human cancer patients; 50 mg QD, 6 h, median, cycle 1 day 50: 16.8 ng/mL
item: S-adenosylmethionine; human cancer patients; 200 mg BID, 8 h, median, cycle 1 day 200: 12 ng/mL

For quick reference, copied from above (series 1):
EGFR (Homo sapiens, UniProt P00533, T790M): 100%
RPS6KB1 (Homo sapiens, UniProt P23443): 72%
EGFR (Homo sapiens, UniProt P00533, del746-750): 69%
DDR2 (Homo sapiens, UniProt Q16832): 67%
FGFR1 (Homo sapiens, UniProt P11362): 100%
